Measured values collected from several papers.
A part holds a random share of what one study measured. Changes are numbered by the printed parent chain.

Series 1 — method: universal PBM; form: double-stranded DNA, one strand shown; sample: in vitro; concentration: 600 nM; reading: higher = stronger binding; endpoint: E-score
Target: Sal-like protein 4, full length isoform A (SALL4, Homo sapiens, UniProt Q9UJQ4, residues 1-1053)
Chain of UniProt Q9UJQ4 (whole entry, looked up): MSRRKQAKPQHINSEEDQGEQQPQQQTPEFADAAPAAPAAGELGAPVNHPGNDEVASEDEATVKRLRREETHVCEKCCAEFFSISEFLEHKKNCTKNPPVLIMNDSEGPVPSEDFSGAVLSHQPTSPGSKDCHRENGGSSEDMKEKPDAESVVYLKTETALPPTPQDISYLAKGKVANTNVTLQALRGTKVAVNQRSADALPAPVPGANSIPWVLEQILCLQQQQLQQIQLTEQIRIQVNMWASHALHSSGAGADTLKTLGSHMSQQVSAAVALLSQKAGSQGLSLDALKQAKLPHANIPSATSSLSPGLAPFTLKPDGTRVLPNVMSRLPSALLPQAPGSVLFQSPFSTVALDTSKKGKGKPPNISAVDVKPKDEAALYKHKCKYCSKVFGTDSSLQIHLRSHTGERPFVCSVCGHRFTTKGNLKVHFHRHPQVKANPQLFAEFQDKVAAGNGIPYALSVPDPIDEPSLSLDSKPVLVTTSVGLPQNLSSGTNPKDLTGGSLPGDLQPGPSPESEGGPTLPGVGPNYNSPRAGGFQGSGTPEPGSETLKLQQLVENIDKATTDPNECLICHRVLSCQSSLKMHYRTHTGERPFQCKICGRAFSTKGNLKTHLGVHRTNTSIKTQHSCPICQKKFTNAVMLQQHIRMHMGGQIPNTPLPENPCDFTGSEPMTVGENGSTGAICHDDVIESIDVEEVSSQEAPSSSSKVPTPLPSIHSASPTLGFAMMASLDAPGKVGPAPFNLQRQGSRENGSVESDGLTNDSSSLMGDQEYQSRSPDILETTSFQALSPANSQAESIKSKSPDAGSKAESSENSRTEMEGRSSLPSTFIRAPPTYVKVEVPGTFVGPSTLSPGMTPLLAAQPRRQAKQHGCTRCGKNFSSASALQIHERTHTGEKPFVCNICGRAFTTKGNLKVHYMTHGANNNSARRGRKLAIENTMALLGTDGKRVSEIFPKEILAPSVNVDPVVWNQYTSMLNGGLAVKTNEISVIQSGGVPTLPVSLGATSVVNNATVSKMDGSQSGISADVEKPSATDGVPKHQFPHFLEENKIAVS
Setting: 8-mer, flanks averaged, mean of replicates
ATTGAGGC: 0.0263
CTGGGGAA: -0.372
CAGCTATC: -0.0934
TCGATTAA: 0.3
GCCCTAGA: -0.251
AAGGGTAG: -0.0508
ATCCCTGC: -0.0253
ACGTGGTA: -0.0318
CCAACGAA: -0.155
CTGCCACA: -0.19
CGGCTGTC: -0.205
CCTTAAAA: 0.234

Series 2 — method: competition protein-binding microarray; form: double-stranded DNA, one strand shown; sample: in vitro; concentration: 2 µM; added: Cbf1 competitor, 0.05 µM; reading: higher = stronger binding; endpoint: fluorescence intensity; constant ends, left off below: … GTCTTGATTCGCTTGACGCTGCTG
Target: Phosphate system positive regulatory protein PHO4, full length, GST-tagged (PHO4, Saccharomyces cerevisiae, UniProt P07270, residues 1-312)
Setting: whole 60-bp probe, lowest competitor level
Residues (chain): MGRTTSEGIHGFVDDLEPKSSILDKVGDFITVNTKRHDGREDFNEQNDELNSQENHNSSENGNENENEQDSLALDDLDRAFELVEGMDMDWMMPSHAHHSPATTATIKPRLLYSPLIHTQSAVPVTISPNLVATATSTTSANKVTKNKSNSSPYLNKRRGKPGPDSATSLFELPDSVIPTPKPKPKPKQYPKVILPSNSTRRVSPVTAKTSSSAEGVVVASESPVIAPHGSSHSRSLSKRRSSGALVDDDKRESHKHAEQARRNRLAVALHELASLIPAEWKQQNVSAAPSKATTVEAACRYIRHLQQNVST
CATACCCAACCTTGGGGTGTGGGTGAAGATATTTGT: 6830 a.u.
TACGATACTACCATACATGTGATATGTCCCTTTCTA: 7780 a.u.
TAGCCTTAAATCCTGAACGTGGAGGCGATTATTTCA: 11800 a.u.
CGTCCTAGTGATTGCGCAGTGGGTGCCATGAGGAAG: 6520 a.u.
TTAATGCAAAGTGGACACGTTCAGTTACTATTTCCT: 11300 a.u.
ATAGGGCGCTCGGCTCTCGTGCTTTGCGGTGGGAGC: 7240 a.u.
CGGGGTTAAGTTTGTCATGTGGGTGGCTTGCAGCAG: 9360 a.u.
TCGCGAAGGCTAAGCCATGTGCTGTTACCCCTGCTG: 10500 a.u.
CTAACGAAGGTTTTTCACGTGCGGTACAAGCCAAGT: 13600 a.u.
CTTTCCCGATCTTGTCGGGTGGGTGTAGCACATTTG: 4800 a.u.
TTGACCCGGAATCTATTCGTGACGGAAAGGTTAAGG: 3770 a.u.
GCAGTGCATAAGAGTGACCTGCGGCCAAGAACCCTA: 3040 a.u.
GAGTCGTCATCCAACCTCGTGATGGAGGTTTTCAGT: 10500 a.u.
CGTCCTAGTGATTTTCACGTGGTATCCATGAGGAAG: 14300 a.u.
CGTCCTAGTGATTTTCACGTGACTTCCATGAGGAAG: 10300 a.u.
CAGCGGCATTTCGCTCGCGTGCCAGATCTCACAATC: 8770 a.u.
GTCTTAACTTCCTGGCACGATTCTGCTTATATTTAT: 9400 a.u.
AAGAGAAGAAAAAAGCGCGTGGTCGGAGCCGCGCTA: 10500 a.u.
CTTCTGTAAATTTGCGGCGTGGGTGGACGCGCCCCG: 7440 a.u.
TGCTAGAATACATCGCACGGCTCGCGGAAAGCAACC: 4680 a.u.
GTCTTGTCTCATTGAGTTGTGGGTGTCCCCACTTCA: 4730 a.u.

Series 3 — target: CCNE1, cyclin fold, Cln2 fusion (human); method: yeast growth competition, sequencing; sample: yeast; setting: strong parent motif; relative to: not given; reading: higher = stronger binding; endpoint: normalised enrichment score
Starting sequence: CDKN1B docking peptide (human); PSACRNLFGPVDH
PSACRNLFGPIDH [V11I]: 2.96
PSACRNLFGPVDD [H13D]: 2.77
PSQCRNLFGPVDH [A3Q]: 0.939
PSWCRNLFGPVDH [A3W]: 3.09
PSACRNLFDPVDH [G9D]: 1.98
PSACRNLFGYVDH [P10Y]: 3.15
PSACRNAFGPVDH [L7A]: 0.359
PSACRNLFGPVDY [H13Y]: 3.39
PSACRNLLGPVDH [F8L]: 0.00191
PSACRNLFNPVDH [G9N]: 1.2
PSAWRNLFGPVDH [C4W]: 0.773
PSACRCLFGPVDH [N6C]: 2.17
PSACRNLFFPVDH [G9F]: 1.6
PSACRNDFGPVDH [L7D]: 0.44
PSACKNLLGPVDH [R5K F8L]: 0.211

Series 4 — method: protein-binding microarray; form: double-stranded DNA, one strand shown; sample: in vitro; concentration: 250 nM; setting: 60-bp whole probe; added: salmon DNA 0.4 mg/ml; relative to: random background probes; reading: higher = stronger binding; endpoint: log fluorescence; constant ends, left off below: GCCTAGCAC … GTCTTGATTCGCTTGACGCTGCTG
Target: Interferon regulatory factor 7, full length, phosphomimetic (IRF7, Homo sapiens, UniProt Q92985, residues 1-503, S101K/S471D/S472D/S475D/S476D/S477D/S483D/S484D/S487D)
Residues (chain): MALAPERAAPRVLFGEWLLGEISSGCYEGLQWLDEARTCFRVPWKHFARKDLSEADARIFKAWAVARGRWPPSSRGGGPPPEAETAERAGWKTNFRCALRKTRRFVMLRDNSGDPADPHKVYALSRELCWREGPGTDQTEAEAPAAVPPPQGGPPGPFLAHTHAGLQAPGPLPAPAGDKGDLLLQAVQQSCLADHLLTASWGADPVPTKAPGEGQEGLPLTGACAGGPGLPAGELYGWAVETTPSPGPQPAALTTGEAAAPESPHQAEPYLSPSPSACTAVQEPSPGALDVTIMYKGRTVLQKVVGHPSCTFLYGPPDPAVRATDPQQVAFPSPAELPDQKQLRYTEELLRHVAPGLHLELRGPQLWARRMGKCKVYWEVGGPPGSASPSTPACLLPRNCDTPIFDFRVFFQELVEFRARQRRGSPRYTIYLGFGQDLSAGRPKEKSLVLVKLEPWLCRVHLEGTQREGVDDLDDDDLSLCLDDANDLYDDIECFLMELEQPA
TCATCATTTTCTCTGTTACTGTGCTAG: 1.26 z-score
TTAGGTATCGACTTTCGGGTAGTGCTA: 1.76 z-score
GACGTTTTCCTTTTCCTGACGTGCTAG: 3.56 z-score
TTAGGACTGCTTCTCCTTAAGTGCTAG: 0.822 z-score
TTAGATTTCGGGACTGCATTAGTGCTA: 0.657 z-score
TTAGGTTTCGGACTGGATTAGTGCTAG: 3.85 z-score
TTAGGTTTCGGGTATCCGTTAGTGCTA: 7.18 z-score
TTAGATTTCAGTTCCCATTAGTGCTAG: 1.61 z-score
AGTTCTCTAGAAATTCCCACGGTGCTA: 0.746 z-score
TTAGATTTCCGTCTCGATTAGTGCTAG: 1.14 z-score
GACGGTCTCGGGCTCGGGACGTGCTAG: 0.168 z-score
AGGAAAGTGTTTCTCAACCAGTGCTAG: -0.0982 z-score
TCATTTGTTTCACTTCCTACTGTGCTA: 3.07 z-score
TTAGGTATCAGGTTTCGGTTAGTGCTA: 6.87 z-score
TTAGGTATCGGGTTTAGGTTAGTGCTA: 1.7 z-score
TTAGTTATCCTACTGCTTTAGTGCTAG: 0.686 z-score
GACAGTATCGACTTTCGGGACGTGCTA: 1.3 z-score
GACGACCTCAGACTGGAGACGTGCTAG: -0.17 z-score
TCAGGTTTACCAGATCATACTGTGCTA: -0.22 z-score
TTAGATATCGGGACTGGACTAGTGCTA: -0.204 z-score

Series 5 — method: protein binding microarray; form: double-stranded DNA, one strand shown; sample: in vitro; concentration: not given; relative to: not given; reading: higher = stronger binding; endpoint: E-score
Target: Histone acetyltransferase KAT6A, both winged helices, GST fusion (KAT6A, Homo sapiens, UniProt Q92794, residues 1-181)
Setting: 8-mer, flanks averaged, mean of 2 arrays, mostly near background
Construct (chain): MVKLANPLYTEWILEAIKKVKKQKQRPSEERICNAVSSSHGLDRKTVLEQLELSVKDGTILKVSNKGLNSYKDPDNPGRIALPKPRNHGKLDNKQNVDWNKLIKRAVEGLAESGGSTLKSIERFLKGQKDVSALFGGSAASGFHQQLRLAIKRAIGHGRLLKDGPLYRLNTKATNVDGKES
CCTATACG: -0.0969
ACACGCCA: 0.114
AGTCCTCC: -0.0501
CTGTGGAA: -0.162
CACCAGCG: 0.0675
TACTTCCA: -0.148
CCAACGGA: 0.154
AGACGATG: 0.0207
AAGTCTGA: -0.214
TACTAAGA: 0.00547
AACATTGC: 0.0194
ATGCTTGG: -0.0883
CTGGAGTC: -0.249
AGCTGCTA: -0.168
GCATTTTA: 0.0156
GCGGGGCA: 0.128
CTTCAGGA: -0.136

Series 6 — method: RNA Bind-n-Seq; form: RNA; sample: in vitro; concentration: 200 nM; setting: whole 134-nt RNA, ends assumed; added: 150 mM KCl; relative to: input library; reading: higher = stronger binding; endpoint: log2 enrichment
Target: Ras GTPase-activating protein-binding protein 1, full length (G3BP1, Homo sapiens, UniProt Q13283)
Chain of UniProt Q13283 (whole entry, looked up): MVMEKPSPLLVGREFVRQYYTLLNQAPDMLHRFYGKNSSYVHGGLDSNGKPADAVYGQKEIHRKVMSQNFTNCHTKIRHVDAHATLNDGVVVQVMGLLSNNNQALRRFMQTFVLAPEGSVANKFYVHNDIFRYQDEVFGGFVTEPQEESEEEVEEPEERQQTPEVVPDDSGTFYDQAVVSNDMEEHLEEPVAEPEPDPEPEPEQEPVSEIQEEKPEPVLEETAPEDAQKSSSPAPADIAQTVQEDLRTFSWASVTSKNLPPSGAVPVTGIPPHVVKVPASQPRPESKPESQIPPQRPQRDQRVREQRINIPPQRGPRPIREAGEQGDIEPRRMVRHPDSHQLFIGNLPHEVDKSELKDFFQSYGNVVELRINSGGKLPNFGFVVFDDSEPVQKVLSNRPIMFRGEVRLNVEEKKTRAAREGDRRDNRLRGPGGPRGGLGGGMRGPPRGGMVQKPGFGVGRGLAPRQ
Constant ends, left off below: GGGAGUUCUACAGUCCGACGAUC … UGGAAUUCUCGGGUGUCAAGG
UUACUUUAGAGGAGGAUCUGAUGGAUAUGGCAGUGGACGUGGAUUUGGGGAUGGCUAUAAUGGGUAUGGAGGAGGACCUGGAGGUGGCAA: 0.419
GCAGGAAAAAAAAACAAAUGGAAAUGCUUCGGAUAGUGGCAGGGGUGGGGGUUGCUAAGGAAAGGGUGGGAUGGGAGUGGGUAAAGAGUU: 1.17
UGGCCUUGGUGGCAUGCGGGGAGGAAGAGGUGGCCUCAUGGAUCGUGGUGGUCCCGGUGGAAUGUUCAGAGGUGGCCGUGGUGGAGACAG: 0.722
AAGUCCUGUGCUACACAUCGUAUGUACCGAAUCGGUUUUUUUGGAAAAAAAGGUGGAAAGUAUUAUGUUACGCCGUUCGGAUCUGCACUU: -1.22
GUCCUGUGCUACACAUCGUAUGUACCGAAUCGGGGAAAGGGGAAAAAGGGGUUUGGGGAAAGUAUUAUGUUACGCCGUUCGGAUCUGCAC: 0.492
AAGUCCUGUGCUACACAUCGUAUGUACCGAAUCGGGGAAAGGGGUGGGGUUUGGGGAAAGUAUUAUGUUACGCCGUUCGGAUCUGCACUU: 0.433
UCCUGUGCUACACAUCGUAUGUACCGAAUCAAACCCAAACCCCCCCAAACCCCCCCAAAAAAGUAUUAUGUUACGCCGUUCGGAUCUGCA: 0.117
GUCCUGUGCUACACAUCGUAUGUACCGAAUCGGGGUGGGGUUUGGGGUUUUUUUGGGGAAAGUAUUAUGUUACGCCGUUCGGAUCUGCAC: 0.291
UCCUCAAGUCCUGUGCUACACAUCGUAUGUACCGAAUCGGGGAGGAGGGAGGAAAGUAUUAUGUUACGCCGUUCGGAUCUGCACUUCCAG: 0.519
UUCCUCAAGUCCUGUGCUACACAUCGUAUGUACCGAAUCGGUGGAGGUGGAAAGUAUUAUGUUACGCCGUUCGGAUCUGCACUUCCAGCA: -0.706
CCUGUGCUACACAUCGUAUGUACCGAAUCGGCCCCCCCGGCCCCCCCGGGGCCCCCCCGGAAAGUAUUAUGUUACGCCGUUCGGAUCUGC: -0.057
CACAGACAACACGCACCCACACAGACACAGCGGGAAGGGGUUGGGAUGGGGACAGGGUGCACAGCAGGGCGGGGUAGGACCCCAGCCCCU: 1.9
CCUGUGCUACACAUCGUAUGUACCGAAUCGGGUUUUUUUGGGUUUUUUUGGUUUUUUUGGAAAGUAUUAUGUUACGCCGUUCGGAUCUGC: -0.731
AAGUCCUGUGCUACACAUCGUAUGUACCGAAUCGGGGCCCGGGCCCGGGGCCCGGGAAAGUAUUAUGUUACGCCGUUCGGAUCUGCACUU: -1.08

For quick reference, copied from above (series 6):
GUCCUGUGCUACACAUCGUAUGUACCGAAUCGGGGUGGGGUUUGGGGUUUUUUUGGGGAAAGUAUUAUGUUACGCCGUUCGGAUCUGCAC: 0.291
UUCCUCAAGUCCUGUGCUACACAUCGUAUGUACCGAAUCGGUGGAGGUGGAAAGUAUUAUGUUACGCCGUUCGGAUCUGCACUUCCAGCA: -0.706
CCUGUGCUACACAUCGUAUGUACCGAAUCGGCCCCCCCGGCCCCCCCGGGGCCCCCCCGGAAAGUAUUAUGUUACGCCGUUCGGAUCUGC: -0.057
AAGUCCUGUGCUACACAUCGUAUGUACCGAAUCGGGGAAAGGGGUGGGGUUUGGGGAAAGUAUUAUGUUACGCCGUUCGGAUCUGCACUU: 0.433
CCUGUGCUACACAUCGUAUGUACCGAAUCGGGUUUUUUUGGGUUUUUUUGGUUUUUUUGGAAAGUAUUAUGUUACGCCGUUCGGAUCUGC: -0.731
GUCCUGUGCUACACAUCGUAUGUACCGAAUCGGGGAAAGGGGAAAAAGGGGUUUGGGGAAAGUAUUAUGUUACGCCGUUCGGAUCUGCAC: 0.492
UCCUGUGCUACACAUCGUAUGUACCGAAUCAAACCCAAACCCCCCCAAACCCCCCCAAAAAAGUAUUAUGUUACGCCGUUCGGAUCUGCA: 0.117
AAGUCCUGUGCUACACAUCGUAUGUACCGAAUCGGUUUUUUUGGAAAAAAAGGUGGAAAGUAUUAUGUUACGCCGUUCGGAUCUGCACUU: -1.22
